# Published values gathered from unrelated publications.
# Each numbered part is a random draw from the data of one study; scales do not carry over between parts. Substitutions count along the parent as printed.

# Set 1 — method: RNA Bind-n-Seq; molecule type: RNA; sample: in vitro; concentration: 365 nM; relative to: no-protein control; direction: higher = stronger binding
# Target: RNA binding protein fox-1 homolog 2, RRM domain, GST-SBP tag (RBFOX2, Homo sapiens, UniProt O43251-10, residues 100-194)
# Notes: natural RNA segment, single round, ends assumed
# Constant ends, left off below: GGGAGUUCUACAGUCCGACGAUC … UGGAAUUCUCGGGUGCCAA
# Construct (chain): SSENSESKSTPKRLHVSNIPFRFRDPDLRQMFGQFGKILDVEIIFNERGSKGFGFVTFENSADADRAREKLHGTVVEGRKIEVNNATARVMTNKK
Oligonucleotide,RBNS enrichment (R)
UCUGAGAUAGGUAGAAGUCUUGAGACGGAGGCUGGCCAUCCAUUCAGCCCUGAGCGUGCUGAGUUCUGUGUUUCUCUGAAUAGAGGUGUGGAACCUGAGGGGCCAGCAGG,0.8
CUUUGCUUUGAGACCUUUCCUCUCCUGGGUACUGAGGUGCUAUGAAGCCAACUGACAAAGAUGCAUCACGUGUCUUAGGCUGAUGCCACUACCCGAUUUGUUUAUUUGCA,17
CAGAAUAGCCUGCCUAAUAAGAAGGACUUCGAACCAUUCCCUAUGGCCUCAUCUGGGACUGUUGGUUUAGUAAGCCUGUGGUCAACAAGUCACACCUACAUGACUGACCC,0.429
CAACAUACUCUUAAUGUUGAUUUUACAAUAUGAAGAGAUUAUUUAAAAUAAAUUAUUGUUUUCAUUGAGUGUGUGCUUUUUCCUUGGUGCCAGGGUUACCUCGGCUCGGA,0.408
AACAAAGCCCACAGGAUACGCCCGAGACCCUCAAUUCAAGGAGAGCUCCAAGGAUGUGUUGGACUCUGUGCUCCAGUGGGGCACUGGCUGCACGUGGGUCCUUGGAGAUG,0.337
GUUUAUCCUAAGGGAAUACCACUUUGCUCCCUGUGCAUAGUUUAGGAACUGUAGUCCUAGGAGGAAACAGCUUUAAAUAUUGGUAGUGAGUUGUCUAAGAUCAGGACUGU,1.35
CUUUAAUAACUAGCUGGGGAAAAGAUUAUGUAAUUACUUGGGGCUCUGCAGGACCUUCUCUGUCCAGCGCCCCCUUUCUGUUGUGCGAUUAGUUGUAGCUGCCAUGCUCA,0.378
UGCCAAUCUCUUCUGUGAGGCAUCAUAGACACUGAGCAACCAGGACCACCCCCACGUUCAGAAAUCAGCUGGCCAAGUGACUCCAUUUGACUUGCAAACCAGCCUUUUCU,0.188

# Set 2 — method: protein binding microarray; molecule type: double-stranded DNA, one strand shown; sample: in vitro; concentration: not given; relative to: not given; direction: higher = stronger binding
# Target: Histone acetyltransferase KAT6A, winged helix 2, GST fusion (KAT6A, Homo sapiens, UniProt Q92794, residues 85-181)
# Notes: 8-mer, flanks averaged, mean of 2 arrays, mostly near background
# Construct (chain): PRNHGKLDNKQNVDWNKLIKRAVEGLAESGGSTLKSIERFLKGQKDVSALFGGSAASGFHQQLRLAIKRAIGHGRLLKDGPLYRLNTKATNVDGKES
Oligonucleotide,E-score
AGAAGCAT,0.201
CGTCCTTC,-0.00886
AGCAGAAC,0.0147
GCAGCCCA,-0.00805
AGCCCGCT,0.0188
ATTATAGC,-0.0799
ACACGACC,0.0693
ACAAATAC,-0.0276
GACGGTCA,-0.0119
GCATATTA,-0.039
ATAGTAGA,-0.178
TTCCCAAA,0.13
GCCCCCCA,-0.116
ACCCTCGT,0.132
ACGCGACA,0.0925
ACAGGTGC,-0.033
CCGATGTA,-0.186
AACCAGAT,0.0174
ATGTGGAC,-0.0905
GAAGCTAC,0.139
AACAAGAT,0.0413
CAGCCTCG,0.0983
AACTGCCC,0.0843
CGTTAGAC,-0.144
GACCTAAC,0.155

# Set 3 — target: CCNB3, cyclin fold, Cln2 fusion (human); method: yeast growth competition, sequencing; sample: yeast; notes: weak parent motif; relative to: not given; direction: higher = stronger binding
# Starting sequence: CDC25A docking peptide (human); PPHRRRLLFACSP; partner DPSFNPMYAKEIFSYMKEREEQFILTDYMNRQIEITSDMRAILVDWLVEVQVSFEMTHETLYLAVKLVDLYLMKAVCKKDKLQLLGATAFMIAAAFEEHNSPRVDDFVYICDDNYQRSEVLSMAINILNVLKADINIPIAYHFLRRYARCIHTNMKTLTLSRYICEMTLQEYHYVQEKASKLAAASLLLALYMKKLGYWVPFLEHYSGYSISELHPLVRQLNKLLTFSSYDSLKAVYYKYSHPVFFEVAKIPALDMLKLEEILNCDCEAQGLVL
Substitution,normalised enrichment score
PPHRRRLLFGCSP [A10G],0.0107
PPHRRRRLFACSP [L7R],0.289
PPCRRRLLFACSP [H3C],1.13
PPHRRRLLFALSP [C11L],0.335
TPHRRRLLFACSP [P1T],0.0992
PPHRRRGLFACSP [L7G],0.198
PPHRRRLLMACSP [F9M],0.218
PPHRRRLLFACPP [S12P],0.282
PPHRRSLLFACSP [R6S],0.189
PPHRRTLLFACSP [R6T],0.281
PPHRRRLLFACSG [P13G],0.549
PPHRRRLLFECSP [A10E],0.228
PPHRRRLLFASSP [C11S],0.128
NPHRRRLLFACSP [P1N],0.105
PPHRERLLFACSP [R5E],0.0446
PPHRRRLLFACSM [P13M],-0.0394
PPHARRLLFACSP [R4A],0.544
PPHRRRLLFACAP [S12A],0.21
PPHRRRLLFACSW [P13W],-0.065
PPHRRRLLFACSY [P13Y],0.616
PPHRRRLLFARSP [C11R],-0.229
PPHRRRLLFACIP [S12I],0.429
PPERRRLLFACSP [H3E],-0.0761
PPHRRRMLFACSP [L7M],0.113
PVHRRRLLFACSP [P2V],-0.133

# Set 4 — method: DHFR PCA, deep sequencing; sample: yeast; together with: (+)-ABA 4.8 µM; relative to: wild-type fitted maximum; direction: higher = stronger binding
# Target: ABI1, truncated, D143A, DHFR fusion (Arabidopsis thaliana)
# Notes: methotrexate growth selection, single substitutions
# Starting sequence: PYL1, truncated, DHFR fusion (Arabidopsis thaliana); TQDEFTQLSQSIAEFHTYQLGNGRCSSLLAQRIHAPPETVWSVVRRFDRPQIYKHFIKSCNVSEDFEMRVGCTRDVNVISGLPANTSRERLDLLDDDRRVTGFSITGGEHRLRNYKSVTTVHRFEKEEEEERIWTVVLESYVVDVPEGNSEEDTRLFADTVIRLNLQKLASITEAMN; partner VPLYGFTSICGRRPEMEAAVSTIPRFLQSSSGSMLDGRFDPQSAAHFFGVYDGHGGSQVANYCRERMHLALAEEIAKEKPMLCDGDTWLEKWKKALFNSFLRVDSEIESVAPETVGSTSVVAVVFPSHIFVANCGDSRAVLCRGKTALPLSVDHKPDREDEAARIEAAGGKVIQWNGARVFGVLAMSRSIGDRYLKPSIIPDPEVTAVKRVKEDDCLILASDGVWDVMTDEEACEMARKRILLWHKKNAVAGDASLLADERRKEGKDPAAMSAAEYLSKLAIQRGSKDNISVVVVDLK
Substitution,relative binding score
A84Q,4.16%
E4Q,61.5%
T39I,75.9%
L94Q,2.88%
L29P,13%
L164W,39.8%
E38G,38.7%
F66V,47.8%
S140H,-1.39%
F47A,-2.13%
M68H,48.9%
V118R,84.5%
R98D,9.18%

# Set 5 — method: competition protein-binding microarray; molecule type: double-stranded DNA, one strand shown; sample: in vitro; concentration: 2 µM; together with: Pho4 competitor, 0.05 µM; direction: higher = stronger binding; constant ends, left off below: … GTCTTGATTCGCTTGACGCTGCTG
# Target: Centromere-binding protein 1, full length, His-tagged (CBF1, Saccharomyces cerevisiae, UniProt P17106, residues 1-351)
# Sequence of UniProt P17106 (whole entry, looked up): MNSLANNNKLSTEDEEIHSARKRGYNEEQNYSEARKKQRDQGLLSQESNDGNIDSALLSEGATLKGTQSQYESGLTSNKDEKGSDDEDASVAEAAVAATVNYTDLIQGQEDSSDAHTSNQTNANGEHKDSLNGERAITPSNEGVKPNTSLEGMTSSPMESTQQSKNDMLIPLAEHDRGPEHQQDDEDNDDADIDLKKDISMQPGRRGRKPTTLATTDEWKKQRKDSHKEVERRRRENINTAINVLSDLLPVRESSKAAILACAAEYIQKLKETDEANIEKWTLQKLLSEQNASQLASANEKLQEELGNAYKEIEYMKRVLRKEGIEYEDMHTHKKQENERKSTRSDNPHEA
# Notes: whole 60-bp probe, lowest competitor level
Oligonucleotide,fluorescence intensity [a.u.]
TGCGCAACAACTTGATCGGTGGGTGTATGTCTAGAA,55.6
CATACCCAACCTTGGGGCGTGGGTGAAGATATTTGT,68.8
GAATTTTTTCGAATTAGCGTGCTTTCACTGCTTGCA,80.3
TGCGCAACAACTTGCAGAGTGGGTGTATGTCTAGAA,57.3
TCCGCATGGAAACGAAACGTGGGTATGACTTGGAAG,88.3
ATATCAAATTCATTGAAGGAGGTCCCAACCGCGAGA,88.3
TGGTCCTAAACTCACCACGTGAAATAGGTTGATAAT,884
GGTAAAAAGCACAGGCATGTGAATTGCACAGCAGTG,126
AAATTACTAAGTTGGAACGTGGGTGACGCCGTATGA,88.7
CGAATTACTTGACGTATCGTGCCGATCCGTTGATGC,69.2
GAAGGCCGATGCTGTGCCGTGATGGTCTTTTCCGCA,50
TAACATTCTGTAGTTCATGTGTACTAAAAAAAAAAA,128
TGCGCAACAACTTGCGCAGTGGGTGTATGTCTAGAA,68.1
GGCATATTCTCTTGTAGTGTGACGGAAGGTGCGGGT,71.9
GAAGAGGTGCCTTGTCACCTGACGCCTTATTTTGTG,1350
ACTTACTACAAGCTCAACGTGACTCGTTTGGTGTTC,668
TCACTCTGCCTTCATCACATGCTTTTTTCTATGGTT,399
CGGGGTTAAGTTTGCTCTGTGGGTGGCTTGCAGCAG,71.3
TCAAGCTATGGGATGCGCGTGCTTTGCAACTGGCTA,96

# A few entries again (set 1):
Oligonucleotide,RBNS enrichment (R)
CUUUAAUAACUAGCUGGGGAAAAGAUUAUGUAAUUACUUGGGGCUCUGCAGGACCUUCUCUGUCCAGCGCCCCCUUUCUGUUGUGCGAUUAGUUGUAGCUGCCAUGCUCA,0.378
GUUUAUCCUAAGGGAAUACCACUUUGCUCCCUGUGCAUAGUUUAGGAACUGUAGUCCUAGGAGGAAACAGCUUUAAAUAUUGGUAGUGAGUUGUCUAAGAUCAGGACUGU,1.35
UGCCAAUCUCUUCUGUGAGGCAUCAUAGACACUGAGCAACCAGGACCACCCCCACGUUCAGAAAUCAGCUGGCCAAGUGACUCCAUUUGACUUGCAAACCAGCCUUUUCU,0.188
CAACAUACUCUUAAUGUUGAUUUUACAAUAUGAAGAGAUUAUUUAAAAUAAAUUAUUGUUUUCAUUGAGUGUGUGCUUUUUCCUUGGUGCCAGGGUUACCUCGGCUCGGA,0.408
AACAAAGCCCACAGGAUACGCCCGAGACCCUCAAUUCAAGGAGAGCUCCAAGGAUGUGUUGGACUCUGUGCUCCAGUGGGGCACUGGCUGCACGUGGGUCCUUGGAGAUG,0.337
